Measurements of several laboratories.
Target: Mitogen-activated protein kinase kinase kinase 15 (MAP3K15, Homo sapiens, UniProt Q6ZN16)

C=CC(=O)N1CCCC(n2c(=O)c3ncccc3n(Cc3ccc(Oc4ccccc4)cc3)c2=O)C1 (stereo not drawn)
remaining binding (cell-free assay, competition with immobilised ligand; 1 µM): 58%

COc1cc(Nc2nccc(-c3cnn4nc(OC)ccc34)n2)cc(C(F)(F)F)c1
remaining binding (binding, competition with immobilised ligand; 1 µM): 100%

CNC1C[S+]2CC[S+]3CC[S+](C1)[Ru-4]321([N]=C=S)[n]2c3ccc(OC)cc3c3c4c(c5cc(F)c[n+]1c5c32)C(=O)NC4=O (stereo not drawn)
remaining binding (KinomeScan; 0.1 µM; baseline: untreated): 98%

CNC(=O)C1CCN(c2cc(C)c(F)cc2NC(=O)c2ccc(-c3cc(O)ccc3C)c(C)c2)CC1
remaining binding (binding, competition with immobilised ligand; 1 µM): 97%

C=CC(=O)N1CCc2ccc(-n3c(=O)ccc4cnc5ccc(-c6cnn(C)c6)cc5c43)cc21
remaining binding (KINOMEscan; 1 µM; baseline: DMSO control): 59%

COc1c(Cl)cccc1Nc1c(-c2ccncc2C#C[C@@]2(C)CCCN2C(=O)/C=C/CN(C)C)[nH]c2c1C(=O)NCC2
remaining binding (binding, competition with immobilised ligand; 3 µM): 73%

Cc1ccc(-c2c(/C=C(\C#N)C(=O)NC(C)C)n(CCCO)c3ncnc(N)c23)cc1
remaining binding (cell-free assay, competition with immobilised ligand; 1 µM): 100%

CC(C)=CC1OC(C)(C)C2C=C3C(=O)C(Cl)=CC(O)C3C3C(O)C4OC4C(=O)C132 (stereo not drawn)
remaining binding (cell-free assay, competition with immobilised ligand; 10 µM): 72%

Cc1cnc2nc1Nc1cccc(c1)COC/C=C/COCc1cc(ccc1OCCN1CCOCC1)N2
remaining binding (binding; 0.1 µM): 62%

Nc1ncc2c(n1)-c1c([nH]c3ccc(C4=CCOCC4)cc13)CCC2
remaining binding (binding, competition with immobilised ligand; 1 µM): 100%

COc1cc(Nc2nc(C)cc(-c3cnn4nc(OC)ccc34)n2)cc(C(F)(F)F)c1
remaining activity (inhibitor; 1 µM; baseline: control): 100%

CCN1CCN(Cc2ccc(C(=O)Nc3ccc(C)c(NCc4cnc5[nH]ccc5c4OC)c3)cc2C(F)(F)F)CC1
remaining binding (binding, competition with immobilised ligand; 1 µM): 11%
